Measurements gathered from unrelated publications.
Lines come from different studies, so protocols differ. Values joined by “and” are separate records of one study, mostly repeats; a detail may differ. Numbers after ± are the reported error.
Target: C-X-C chemokine receptor type 4 (CXCR4, Homo sapiens, UniProt P61073)
UniProt P61073, sequence (whole entry, looked up): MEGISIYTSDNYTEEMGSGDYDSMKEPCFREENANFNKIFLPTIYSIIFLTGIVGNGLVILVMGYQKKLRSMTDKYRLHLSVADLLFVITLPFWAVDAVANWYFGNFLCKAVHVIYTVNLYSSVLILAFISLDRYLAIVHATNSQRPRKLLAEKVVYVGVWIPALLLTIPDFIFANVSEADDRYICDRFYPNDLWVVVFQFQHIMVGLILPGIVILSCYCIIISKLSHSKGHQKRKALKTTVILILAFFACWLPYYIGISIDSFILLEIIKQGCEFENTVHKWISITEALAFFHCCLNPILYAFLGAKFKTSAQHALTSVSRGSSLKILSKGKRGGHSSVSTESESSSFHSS

| Compound | assay | system | setting | how to read | quantity | result |
| --- | --- | --- | --- | --- | --- | --- |
| Cc1ccc(S(=O)(=O)NCc2ccc(CNC(=O)c3ccc(Cl)cc3)cc2)cc1 | binding, inhibitor, competitive binding | MDA-MB-231 | added: biotinylated TN14003 |  | EC | 10 nM |
| Cc1ccc(CN(Cc2ccco2)c2cnc(S(C)(=O)=O)nc2C(=O)Nc2ccc(C)cc2)cc1 | arrestin recruitment, antagonist, DiscoverX arrestin |  | 30 µM | baseline: control | inhibition | 0.38% and 0.69% |
| Cc1ccc(S(=O)(=O)NCc2ccc(CNC(=O)c3ccccc3C)cc2)cc1 | binding, inhibitor, competitive binding | MDA-MB-231 | added: biotinylated TN14003 |  | EC | 100 nM |
| CC(C)NCCCC[C@@H]1NC(=O)[C@H](Cc2ccc(O)cc2)NC(=O)[C@H](Cc2ccccc2)NC(=O)CC[C@H](C(=O)N[C@@H](CCCCNC(C)C)C(=O)N[C@@H](CCCCNC(=O)[C@H](CCC(=O)O)NC(=O)[C@H](CCC(=O)O)NC(=O)[C@H](CCC(=O)O)NC(=O)CN2CCN(CC(=O)O)CCN(CC(=O)O)CC2)C(N)=O)NC(=O)CNC(=O)[C@H](Cc2ccc3ccccc3c2)NC(=O)[C@@H](CCCNC(=N)N)NC1=O [fluorine-18 labelled] | radioligand cell uptake | U87.CD4.CXCR4 cells | 1 h |  | internalized fraction | 0.44 ± 0.04% |
| Cc1ccc(S(=O)(=O)NCc2ccc(CNC(=O)c3ccc(F)cc3)cc2)cc1 | binding, inhibitor, competitive binding | MDA-MB-231 | added: biotinylated TN14003 |  | EC | 1 nM |
| O=C(NCc1ccc(CNS(=O)(=O)c2ccc(F)cc2F)cc1)c1cncnc1 | binding, competitor | MDA-MB-231 | semi-quantitative, added: biotinylated TN14003 |  | effective concentration | 1 nM |
| CCn1c(COC(=O)c2ccccc2NC(=O)c2ccco2)nc2cc(S(=O)(=O)N(C)C)ccc21 | arrestin recruitment, antagonist, DiscoverX arrestin |  | 30 µM | baseline: control | inhibition | 0.48% and 0.17% |
| Cc1ccc(S(=O)(=O)NCc2ccc(CNC(=O)c3cccc(F)c3)cc2)cc1 | binding, inhibitor, competitive binding | MDA-MB-231 | added: biotinylated TN14003 |  | EC | 1 nM |
| CCN(CC)CCOCCN(Cc1ccccc1)Cc1nc(Cc2ccccc2)no1 | arrestin recruitment, antagonist, DiscoverX arrestin |  | 30 µM | baseline: untreated | remaining activity | 0.15% and 0% |
| CN1CCN(c2cc(-c3ccncc3)c(-c3ccc4ccccc4c3)nn2)CC1 | agonist, FLIPR |  | 12.5 µM |  | activation | 2.5% |
| O=C(NCc1ccc(CNS(=O)(=O)c2ccc3c(c2)CCO3)cc1)c1cccnc1 | binding, competitor | MDA-MB-231 | semi-quantitative, added: biotinylated TN14003 |  | effective concentration | ~1000 nM |
| c1ccc(-n2cc(CCN(Cc3nc(C4CC4)no3)Cc3nc(C4CC4)no3)cn2)cc1 | arrestin recruitment, antagonist, DiscoverX arrestin |  | 30 µM | baseline: untreated | remaining activity | 0.07% and 0.19% |
| Cc1ccc(S(=O)(=O)NCc2ccc(CNC(=O)c3ccccc3Cl)cc2)cc1 | binding, inhibitor, competitive binding | MDA-MB-231 | added: biotinylated TN14003 |  | EC | 10 nM |
| CCS(=O)(=O)c1ncc(N(Cc2ccccc2)Cc2ccco2)c(C(=O)Nc2ccc(C)cc2)n1 | arrestin recruitment, antagonist, DiscoverX arrestin |  | 30 µM | baseline: untreated | remaining activity | 0.58% and 0.51% |
| O=C(NCc1ccc(CNS(=O)(=O)c2ccc3c(c2)CCO3)cc1)c1scc2c1OCCO2 | binding, competitor | MDA-MB-231 | semi-quantitative, added: biotinylated TN14003 |  | effective concentration | 10 nM |
| CCc1ccc(OCc2nnc(SCc3nc(C)no3)n2Cc2ccccc2)cc1 | arrestin recruitment, antagonist, DiscoverX arrestin |  | 30 µM | baseline: control | inhibition | 0.53% and 0.21% |
| CC(C)NCCCC[C@H](NC(=O)[C@H]1CCC(=O)N[C@@H](Cc2ccccc2)C(=O)N[C@@H](Cc2ccc(O)cc2)C(=O)N[C@@H](CCCCNC(C)C)C(=O)N[C@H](CCCNC(=N)N)C(=O)N[C@@H](Cc2ccc3ccccc3c2)C(=O)NCC(=O)N1)C(N)=O | radioligand uptake, competitor | U87.CD4.CXCR4 cells | 75 µM, 1 h, added: [18F]AlF-NOTA-SC |  | inhibition | 79% |
| O=C(NCc1ccc(CNS(=O)(=O)c2cccc(F)c2)cc1)c1cc2ccccn2n1 | binding, competitor | MDA-MB-231 | semi-quantitative, added: biotinylated TN14003 |  | effective concentration | ~1000 nM |
| Cc1ccc(S(=O)(=O)NCc2ccc(CNC(=O)c3ccccc3F)cc2)cc1 | binding, inhibitor, competitive binding | MDA-MB-231 | added: biotinylated TN14003 |  | EC | 1000 nM |
| CCS(=O)(=O)c1ncc(N(Cc2ccccc2)Cc2ccco2)c(C(=O)Nc2ccccc2F)n1 | arrestin recruitment, antagonist, DiscoverX arrestin |  | 30 µM | baseline: untreated | remaining activity | 0.24% and 0.49% |
| Cc1ccc(S(=O)(=O)NCc2ccc(CNC(=O)c3cccc(C)c3)cc2)cc1 | binding, inhibitor, competitive binding | MDA-MB-231 | added: biotinylated TN14003 |  | EC | 1000 nM |
| Cc1cc(C(=O)NCc2ccc(CNS(=O)(=O)c3ccc4c(c3)CCO4)cc2)n(C)n1 | binding, competitor | MDA-MB-231 | semi-quantitative, added: biotinylated TN14003 |  | effective concentration | ~1000 nM |

Some of these lines once more:
| Compound | assay | system | setting | how to read | quantity | result |
| --- | --- | --- | --- | --- | --- | --- |
| Cc1ccc(S(=O)(=O)NCc2ccc(CNC(=O)c3cccc(F)c3)cc2)cc1 | binding, inhibitor, competitive binding | MDA-MB-231 | added: biotinylated TN14003 |  | EC | 1 nM |
| CCN(CC)CCOCCN(Cc1ccccc1)Cc1nc(Cc2ccccc2)no1 | arrestin recruitment, antagonist, DiscoverX arrestin |  | 30 µM | baseline: untreated | remaining activity | 0.15% and 0% |
| CN1CCN(c2cc(-c3ccncc3)c(-c3ccc4ccccc4c3)nn2)CC1 | agonist, FLIPR |  | 12.5 µM |  | activation | 2.5% |
